Measured values gathered from unrelated publications.
Each numbered part is a random draw from the data of one study; scales do not carry over between parts.

Block 1
Target: Prothrombin, mature alpha-thrombin (F2, Homo sapiens, UniProt P00734)
Method: aptamer microarray, sandwich
Form: DNA with 2'F-ANA
Matrix: in vitro
Tested at: 200 nM
Notes: whole 15-mer aptamer, many near background
With: Cy3 exosite-II aptamer, 400 nM
Reading: higher = stronger binding
Oligonucleotide: GGTTGGTGTGGTTGG
| Modification | mean fluorescence intensity |
| --- | --- |
| 2'F-ANA at 1 3 6 7 11 13 14 15 | 78.4 a.u. |
| 2'F-ANA at 1 2 5 6 9 10 12 13 15 | 46.5 a.u. |
| 2'F-ANA at 1 4 5 8 9 11 12 14 | 50.7 a.u. |
| 2'F-ANA at 3 6 8 9 11 14 15 | 482 a.u. |
| 2'F-ANA at 1 2 3 4 6 7 8 10 12 14 15 | 56 a.u. |
| 2'F-ANA at 3 5 7 8 9 11 14 15 | 62.3 a.u. |
| 2'F-ANA at 1 2 3 5 7 8 9 10 11 12 13 14 | 164 a.u. |
| 2'F-ANA at 1 4 5 7 9 10 12 14 15 | 50.3 a.u. |
| 2'F-ANA at 2 6 8 11 15 | 284 a.u. |
| 2'F-ANA at 1 2 3 5 7 11 12 13 | 75.3 a.u. |
| 2'F-ANA at 2 3 5 6 9 10 11 12 13 | 53 a.u. |
| 2'F-ANA at 3 5 7 8 11 13 | 118 a.u. |
| 2'F-ANA at 1 3 4 8 10 13 14 | 50.5 a.u. |
| 2'F-ANA at 1 2 4 6 8 9 15 | 134 a.u. |
| 2'F-ANA at 1 3 4 5 6 7 8 14 | 59.8 a.u. |
| 2'F-ANA at 2 3 5 8 9 10 14 | 85.7 a.u. |
| 2'F-ANA at 2 3 4 5 8 10 13 14 15 | 45.8 a.u. |
| 2'F-ANA at 1 2 3 4 5 6 10 12 14 15 | 47 a.u. |
| 2'F-ANA at 1 3 5 6 7 8 9 12 13 14 15 | 51.8 a.u. |
| 2'F-ANA at 3 7 12 13 | 1550 a.u. |
| 2'F-ANA at 5 7 8 12 15 | 274 a.u. |
| 2'F-ANA at 1 4 6 7 12 15 | 259 a.u. |
| 2'F-ANA at 2 4 5 7 9 11 14 15 | 50.3 a.u. |
| 2'F-ANA at 1 3 4 7 8 12 | 443 a.u. |
| 2'F-ANA at 4 5 6 7 10 14 | 43.8 a.u. |

Block 2
Target: Histone acetyltransferase KAT6A, winged helix 1, GST fusion (KAT6A, Homo sapiens, UniProt Q92794, residues 1-85)
Method: protein binding microarray
Form: double-stranded DNA, one strand shown
Matrix: in vitro
Tested at: not given
Notes: 8-mer, flanks averaged, mean of 2 arrays, mostly near background
Baseline: not given
Reading: higher = stronger binding
Residues (chain): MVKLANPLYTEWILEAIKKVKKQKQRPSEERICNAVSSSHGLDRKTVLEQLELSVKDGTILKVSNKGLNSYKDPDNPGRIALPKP
| Oligonucleotide | E-score |
| --- | --- |
| ATTGAGCC | -0.0111 |
| TGCGCAAA | 0.2 |
| ACTAGACT | 0.0578 |
| AAGAAGGA | -0.191 |
| TGGTCCAA | 0.0492 |
| AACTGGCT | -0.258 |
| CACAGAGA | -0.13 |
| CGATAGTA | 0.0575 |
| GCACGTAA | -0.000645 |
| ACGACTTC | -0.059 |
| CGAGAGGC | 0.108 |
| ATCTTGCC | 0.00085 |
| ATGGTACA | -0.0255 |
| CGAGGGCC | 0.0299 |
| CACGCGTG | 0.283 |
| AAGAGCAT | -0.117 |
| GGGCCTAA | -0.0233 |
| AAGGGACG | 0.0201 |
| CCGCATAC | 0.238 |
| ATATAGAC | -0.0328 |

Block 3
Target: RNA binding protein fox-1 homolog 2, RRM domain, GST-SBP tag (RBFOX2, Homo sapiens, UniProt O43251-10, residues 100-194)
Method: RNA Bind-n-Seq
Form: RNA
Matrix: in vitro
Tested at: 365 nM
Notes: natural RNA segment, single round, ends assumed
Baseline: no-protein control
Reading: higher = stronger binding
All sequences stand within: GGGAGUUCUACAGUCCGACGAUC … UGGAAUUCUCGGGUGCCAA
Residues (chain): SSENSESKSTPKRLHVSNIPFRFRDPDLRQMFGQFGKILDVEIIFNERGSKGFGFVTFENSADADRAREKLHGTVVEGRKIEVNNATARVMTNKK
| Oligonucleotide | RBNS enrichment (R) |
| --- | --- |
| GGGACAGGGCCUUUUCAUUAAUGAGAGAACAUGUCACAAGGAAAGCAAGAGAUAAAAACCAACAAAACCUAACCUGGUGACCACAUGUCUGUGACUCCAUGUACUCAUCC | 0.348 |
| UCCCUUGUGUUUCAACCAAUCAGAAACUACUUUAACUAAAUGUACUAACCUUUUUCCCUCCUAAUUUGCUUUGAAAAAGUUUAGUAAUUCAAUUAAGCGUGAUUCUAUCU | 0.37 |
| AGAAGUUCGGGAAGGUUCACUCUUCCAUAUGCGCUUUUAGGUGAUCAGCCCUCCAUUCCGUCUAGCUGCCUUAGUAAGGAACCUGGGGGUGUGGUUAGUGGAAGACCUGG | 0.45 |
| ACCUGGCACUAAGGGAGUACCUUAUUAUCCUACAUCGCAAAUUUCAACAGCUACAUUAUAUUUCCUUCUGACACUUGGAAGGUAUUGAAAUUUCUAGAAAUGUAUCCUUC | 0.709 |
| GAUAGUUACUGUGGAGCAGCCAGUUCAUGGGGUCCCCCUUGGGGCCCCACACCCCGUCUCUCACCAAGAGUUACUGAUUUUGCUCAUCCACUUCCCUACACAUCUAUGGG | 0.293 |
| CAAACUCUACCCAGUCUUUUCUAGACCCUCAACUAUCUCCAGUGUUGUUGUUUAAUCGUAGCCGGAUCAGGGAGUGAGUCUUUUAGGCAAAUGUUGGAUUAUAUAUCAAA | 0.317 |
| UGCAUGGAACAGGUCUGCCUAUGUGUAGUGUGGGUGUCCACUUCAGCCUAGUGUAGAGGACCUCUCGAAGACAUGCCCAGGGGUUUUUUUCCAGUGAGGUUGUAGACCCU | 0.907 |
| AGGCUGAGUGUUACCUUAAAAUGCCUUGUGGUCUCCACCUCUAAAGCUAUAAAAGUGUCUUAGAGAGAAUACUCAUCUAGUAAAUAGUGUGAGUUUCCAAUGUAUUAUCU | 0.337 |
| GCAGCAUAUUGGCUUGGGGGCAAGCACUAGAACCGACACAAAAGGGUUGAUGAGGGCCCUGGCACCACUGUCACCACCCACCCCUUCCUACCAGCUGCUGCUAGCCCUCU | 0.929 |
| GAUUCCAGCACUGAGCCGUGGGCCGGUCAUGAGCCACGAUAAAAAAUGCCAGUUUGGCAAACUCAGCACUCCUGUUCCCUGCUCAGGUAUAUGCGAUCUCUACCGAGAAG | 0.735 |
| GCCCUAGGUUACAUUUUUGGUGAUGAUCCUCUCAGAACUUUUGUAAUUUUAUUUUAAAAUGUGUAUAUAUCAGGCUUAAUAAAGAUACUCUUUUAAGCUAUACACCUAGA | 0.71 |
| CACCUGUAGUCCCAGCUGCUUGGGAGGCUGAGGUGGGAGGAUGGCUAGAGCCCAGGAGAUGGGUGUUGCAGUGAGCUGAGACCAUGCCACUGUACUCUAGCCUGGGUAAC | 0.362 |

Block 4
Target: Interferon regulatory factor 7, full length, phosphomimetic (IRF7, Homo sapiens, UniProt Q92985, residues 1-503, S101K/S471D/S472D/S475D/S476D/S477D/S483D/S484D/S487D)
Sequence of UniProt Q92985 (whole entry, unmodified, looked up): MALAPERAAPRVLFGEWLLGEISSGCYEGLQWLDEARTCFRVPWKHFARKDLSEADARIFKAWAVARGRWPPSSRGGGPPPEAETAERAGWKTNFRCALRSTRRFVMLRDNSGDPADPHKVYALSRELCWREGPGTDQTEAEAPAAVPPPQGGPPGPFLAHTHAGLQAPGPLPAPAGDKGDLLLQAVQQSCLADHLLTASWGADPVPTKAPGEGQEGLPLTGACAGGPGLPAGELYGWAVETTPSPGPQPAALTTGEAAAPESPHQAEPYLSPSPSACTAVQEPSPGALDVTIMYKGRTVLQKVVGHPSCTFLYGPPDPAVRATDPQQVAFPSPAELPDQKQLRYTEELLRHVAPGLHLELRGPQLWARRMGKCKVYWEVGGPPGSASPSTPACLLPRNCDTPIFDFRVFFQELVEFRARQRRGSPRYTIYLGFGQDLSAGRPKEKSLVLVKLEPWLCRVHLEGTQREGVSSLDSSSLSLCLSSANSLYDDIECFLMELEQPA
Method: protein-binding microarray
Form: double-stranded DNA, one strand shown
Matrix: in vitro
Tested at: 250 nM
Notes: 60-bp whole probe
With: salmon DNA 0.4 mg/ml
Baseline: random background probes
Reading: higher = stronger binding
All sequences stand within: GCCTAGCAC … GTCTTGATTCGCTTGACGCTGCTG
| Oligonucleotide | log fluorescence [z-score] |
| --- | --- |
| TTAGGTATAGGGACTGGGTTAGTGCTA | 0.0414 |
| TTAGAACTGGGGTAACGATTAGTGCTA | -0.583 |
| GACGATTCCAGTTTCGAGGCGTGCTAG | 3.08 |
| TTAGGACTGGACACTGGGTTGGTGCTA | -0.793 |
| GAAGCCAGCTCTTTCGTTACGTGCTAG | -0.365 |
| TTAGGTTACGGGTATCGGTTAGTGCTA | 1.33 |
| TTAGATTTCTGTTCCGATTAGTGCTAG | 1.44 |
| GACGGTTTCCCTTTCCTGACGTGCTAG | 5.83 |
| ACTTTTTTTAATTGAGAAGCGTGCTAG | 0.85 |
| ATAGAACTGAGTCTCGATTAGTGCTAG | 1.33 |
| GACGGTTTCCTTATCCTGGCGTGCTAG | 3.11 |
| TCACAATTTGCTTTAGTACTGTGCTAG | 0.35 |
| TTAGTACTGGGGTTTCGATTAGTGCTA | 5.56 |
| CTTGTTTCCAGTATATTTAAGTGCTAG | 2.82 |
| GCCGGTTTCGGTCTCGGGACGTGCTAG | 8.17 |
| GAGGGTTTCCTTTTCCTGACGTGCTAG | 4.72 |
| TTAGGTCTCCGTTTCCTTTAGTGCTAG | 2.55 |
| GACGGTTTCGTTCTCGGGACGTGCTAG | 9.01 |
| TTAGAACTGAGGACTGGATTAGTGCTA | -0.372 |
| TTAGGTGTCGGGACTGGGTTAGTGCTA | -0.856 |
| TTAGAACTGAGTCTAGATTAGTGCTAG | -0.241 |
| TCAATCGTCCCTTTGAGACTGTGCTAG | 0.158 |
| TTTGCTTTCCTTCTTGAACTGTGCTAG | 0.994 |
| TTTTTTCTTTTATTAGTGACGTGCTAG | 2.85 |
